Results from different studies.
Parts stem from different laboratories: compare values within a part only. Values joined by “and” are separate records of one study, mostly repeats; a detail may differ.
UniProt P42684, sequence (whole entry, looked up): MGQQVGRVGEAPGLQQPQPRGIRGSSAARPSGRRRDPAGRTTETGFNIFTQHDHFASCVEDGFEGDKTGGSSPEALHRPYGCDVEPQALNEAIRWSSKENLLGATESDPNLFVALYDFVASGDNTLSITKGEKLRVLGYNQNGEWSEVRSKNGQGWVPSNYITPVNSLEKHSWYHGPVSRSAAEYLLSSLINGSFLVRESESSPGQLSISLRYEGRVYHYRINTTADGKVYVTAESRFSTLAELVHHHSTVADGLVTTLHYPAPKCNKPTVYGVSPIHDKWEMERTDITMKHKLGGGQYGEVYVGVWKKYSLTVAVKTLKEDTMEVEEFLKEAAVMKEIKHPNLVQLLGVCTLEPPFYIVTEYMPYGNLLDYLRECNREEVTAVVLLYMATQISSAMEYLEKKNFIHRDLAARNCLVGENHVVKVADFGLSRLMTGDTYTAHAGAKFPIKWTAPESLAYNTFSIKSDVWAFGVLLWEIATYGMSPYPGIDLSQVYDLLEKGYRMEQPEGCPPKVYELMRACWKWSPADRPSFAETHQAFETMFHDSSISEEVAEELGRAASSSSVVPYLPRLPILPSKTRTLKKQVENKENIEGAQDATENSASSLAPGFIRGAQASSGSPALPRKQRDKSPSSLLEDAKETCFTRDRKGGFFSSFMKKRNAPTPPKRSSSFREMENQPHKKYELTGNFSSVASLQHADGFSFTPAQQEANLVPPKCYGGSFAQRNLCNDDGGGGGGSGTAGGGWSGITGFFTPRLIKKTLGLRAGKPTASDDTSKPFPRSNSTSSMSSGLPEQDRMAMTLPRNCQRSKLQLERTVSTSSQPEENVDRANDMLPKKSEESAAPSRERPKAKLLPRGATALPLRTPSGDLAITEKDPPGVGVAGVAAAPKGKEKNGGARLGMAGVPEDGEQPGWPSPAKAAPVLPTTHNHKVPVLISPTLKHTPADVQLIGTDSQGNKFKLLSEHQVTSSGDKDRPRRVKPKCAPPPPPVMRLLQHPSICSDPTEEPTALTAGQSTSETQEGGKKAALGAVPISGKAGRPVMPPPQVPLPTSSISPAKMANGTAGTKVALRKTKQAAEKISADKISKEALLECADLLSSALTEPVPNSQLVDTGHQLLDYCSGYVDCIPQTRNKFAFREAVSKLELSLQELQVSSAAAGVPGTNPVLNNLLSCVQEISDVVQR
UniProt P00519, sequence (whole entry, unmodified, looked up): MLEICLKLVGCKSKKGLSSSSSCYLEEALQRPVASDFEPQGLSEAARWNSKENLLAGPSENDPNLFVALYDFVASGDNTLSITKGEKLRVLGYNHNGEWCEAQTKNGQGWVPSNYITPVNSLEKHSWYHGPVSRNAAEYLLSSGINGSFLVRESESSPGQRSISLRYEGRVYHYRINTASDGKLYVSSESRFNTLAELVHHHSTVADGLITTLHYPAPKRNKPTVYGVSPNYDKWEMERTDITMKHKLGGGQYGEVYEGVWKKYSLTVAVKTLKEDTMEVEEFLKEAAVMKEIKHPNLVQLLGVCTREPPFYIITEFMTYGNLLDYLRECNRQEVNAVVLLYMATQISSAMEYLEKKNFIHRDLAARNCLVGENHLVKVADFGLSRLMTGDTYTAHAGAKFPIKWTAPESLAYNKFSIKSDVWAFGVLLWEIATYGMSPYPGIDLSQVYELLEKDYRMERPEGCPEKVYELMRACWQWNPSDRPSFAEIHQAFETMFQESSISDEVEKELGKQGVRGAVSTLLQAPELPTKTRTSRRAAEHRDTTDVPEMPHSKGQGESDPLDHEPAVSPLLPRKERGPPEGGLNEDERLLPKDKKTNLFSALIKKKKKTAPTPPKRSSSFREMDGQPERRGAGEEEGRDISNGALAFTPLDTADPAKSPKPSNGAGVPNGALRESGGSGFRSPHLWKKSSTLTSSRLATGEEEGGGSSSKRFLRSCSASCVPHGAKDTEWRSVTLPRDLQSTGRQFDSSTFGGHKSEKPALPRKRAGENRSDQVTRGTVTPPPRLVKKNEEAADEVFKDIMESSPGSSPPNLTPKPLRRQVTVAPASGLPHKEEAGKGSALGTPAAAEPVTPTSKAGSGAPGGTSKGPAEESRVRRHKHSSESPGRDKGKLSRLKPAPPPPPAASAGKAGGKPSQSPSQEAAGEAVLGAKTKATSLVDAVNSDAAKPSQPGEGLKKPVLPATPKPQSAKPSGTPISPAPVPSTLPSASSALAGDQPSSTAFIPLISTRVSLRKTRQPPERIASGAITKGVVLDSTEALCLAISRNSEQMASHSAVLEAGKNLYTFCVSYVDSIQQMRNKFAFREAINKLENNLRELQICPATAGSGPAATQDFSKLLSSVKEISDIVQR
UniProt Q15759, sequence (whole entry, looked up): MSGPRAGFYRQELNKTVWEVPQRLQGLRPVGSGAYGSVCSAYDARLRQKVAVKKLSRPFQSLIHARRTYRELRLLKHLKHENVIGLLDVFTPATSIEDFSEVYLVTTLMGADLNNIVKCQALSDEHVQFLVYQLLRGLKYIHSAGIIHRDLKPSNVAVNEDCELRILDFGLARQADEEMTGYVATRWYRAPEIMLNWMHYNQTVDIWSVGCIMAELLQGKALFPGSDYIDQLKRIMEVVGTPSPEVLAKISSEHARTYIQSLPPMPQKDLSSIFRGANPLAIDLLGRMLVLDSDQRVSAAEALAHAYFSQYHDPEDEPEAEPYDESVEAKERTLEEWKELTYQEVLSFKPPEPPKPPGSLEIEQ
UniProt Q9H1R3, sequence (whole entry, looked up): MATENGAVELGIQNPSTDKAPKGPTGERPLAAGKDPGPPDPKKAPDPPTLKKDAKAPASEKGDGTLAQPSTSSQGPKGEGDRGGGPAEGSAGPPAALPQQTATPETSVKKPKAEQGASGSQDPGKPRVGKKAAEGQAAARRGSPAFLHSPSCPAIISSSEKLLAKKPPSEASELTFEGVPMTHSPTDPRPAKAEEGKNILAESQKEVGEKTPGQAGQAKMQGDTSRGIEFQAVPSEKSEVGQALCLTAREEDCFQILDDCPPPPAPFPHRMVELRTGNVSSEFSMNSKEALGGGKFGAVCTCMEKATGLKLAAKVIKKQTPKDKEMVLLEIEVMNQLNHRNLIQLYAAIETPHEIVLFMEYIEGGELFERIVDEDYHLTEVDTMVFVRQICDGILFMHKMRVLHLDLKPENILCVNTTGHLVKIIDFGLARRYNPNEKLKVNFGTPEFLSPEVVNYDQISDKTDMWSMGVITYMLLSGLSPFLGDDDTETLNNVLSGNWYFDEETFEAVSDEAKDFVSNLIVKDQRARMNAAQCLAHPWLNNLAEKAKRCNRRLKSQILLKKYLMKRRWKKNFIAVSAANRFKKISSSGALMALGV
UniProt Q92630, sequence (whole entry, looked up): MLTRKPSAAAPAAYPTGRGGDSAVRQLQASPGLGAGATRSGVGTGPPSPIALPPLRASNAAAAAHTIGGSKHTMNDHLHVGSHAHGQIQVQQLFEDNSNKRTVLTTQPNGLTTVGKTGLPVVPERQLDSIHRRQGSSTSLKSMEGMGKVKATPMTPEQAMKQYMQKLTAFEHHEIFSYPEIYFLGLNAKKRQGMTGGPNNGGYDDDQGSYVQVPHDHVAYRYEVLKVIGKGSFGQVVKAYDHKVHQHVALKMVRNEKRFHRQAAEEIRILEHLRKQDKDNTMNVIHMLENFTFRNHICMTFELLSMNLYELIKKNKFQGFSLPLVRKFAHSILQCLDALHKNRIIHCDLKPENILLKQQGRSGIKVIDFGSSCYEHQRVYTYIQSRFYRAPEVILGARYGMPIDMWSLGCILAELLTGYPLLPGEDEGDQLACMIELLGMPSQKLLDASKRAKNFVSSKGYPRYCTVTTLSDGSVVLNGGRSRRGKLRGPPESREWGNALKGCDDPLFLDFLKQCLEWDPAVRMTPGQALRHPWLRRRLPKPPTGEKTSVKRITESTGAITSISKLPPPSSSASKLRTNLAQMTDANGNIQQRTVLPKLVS

Study 1
Target: Tyrosine-protein kinase ZAP-70 (ZAP70, Homo sapiens, UniProt P43403)
UniProt P43403, sequence (whole entry, looked up): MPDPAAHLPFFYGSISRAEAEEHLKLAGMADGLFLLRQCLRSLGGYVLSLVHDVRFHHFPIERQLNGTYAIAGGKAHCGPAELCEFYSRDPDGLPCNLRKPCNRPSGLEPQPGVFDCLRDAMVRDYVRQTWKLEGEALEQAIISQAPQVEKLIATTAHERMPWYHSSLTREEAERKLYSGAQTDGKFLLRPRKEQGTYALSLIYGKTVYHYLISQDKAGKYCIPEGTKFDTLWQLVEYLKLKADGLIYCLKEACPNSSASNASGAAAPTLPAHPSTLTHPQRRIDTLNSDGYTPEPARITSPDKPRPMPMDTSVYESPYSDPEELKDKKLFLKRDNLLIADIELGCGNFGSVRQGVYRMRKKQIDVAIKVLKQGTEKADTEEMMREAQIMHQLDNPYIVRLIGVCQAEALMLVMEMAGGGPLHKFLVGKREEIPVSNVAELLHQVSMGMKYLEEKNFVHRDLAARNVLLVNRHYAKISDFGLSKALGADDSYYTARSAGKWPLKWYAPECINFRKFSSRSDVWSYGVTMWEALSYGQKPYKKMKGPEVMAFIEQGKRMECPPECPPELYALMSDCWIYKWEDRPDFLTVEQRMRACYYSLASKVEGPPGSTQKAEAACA
Observed: enzyme activity
Mode: inhibitor
Tested at: 0.5 µM
Reference: control
| Structure (SMILES) | remaining activity [%] |
| --- | --- |
| C[S+]([O-])c1ccc(-c2nc(-c3ccncc3)c(-c3ccc(F)cc3)[nH]2)cc1 (stereo not drawn) | 94.4 |
| CN(C)CCCn1cc(C2=C(c3c[nH]c4ccccc34)C(=O)NC2=O)c2ccccc21 | 93 |
| Cc1nc(Nc2ncc(C(=O)Nc3c(C)cccc3Cl)s2)cc(N2CCN(CCO)CC2)n1 | 117 |
| O=c1cc(N2CCOCC2)oc2c1ccc1ccccc12 | 103 |
| COc1cc2ncnc(N3CCN(C(=O)Nc4ccc(Oc5ccccc5)cc4)CC3)c2cc1OC | 100 |
| Cn1cnc2cc3c(Nc4cccc(Br)c4)ncnc3cc21 | 110 |
| O=C1NC(=O)/C(=C/c2ccc3nccnc3c2)S1 | 92.4 |
| COc1ccc(Cl)cc1NC(=O)Nc1cc(C)nc2ccccc12 | 94.9 |
| CC(=O)O/N=C1/C(c2c(O)[nH]c3cc(Br)ccc23)=Nc2ccccc21 | 102 |

Study 2
Cell line: A-375
Tested at: 100 µM
Time: 36 h
| SMILES | viability |
| --- | --- |
| CC(C(=O)O)c1ccc2c(c1)Cc1cccnc1O2 (stereo not drawn) | 105% |
| CC1=C(/C=C/C(C)=C/C=C/C(C)=C/CO)C(C)(C)CCC1 | 33.6% |
| CCC1=C(C)CN(C(=O)NCCc2ccc(S(=O)(=O)NC(=O)N[C@H]3CC[C@H](C)CC3)cc2)C1=O | 113% |
| Cn1c(=O)c2c(ncn2CC(O)CO)n(C)c1=O (stereo not drawn) | 98% |
| CC(C)C[C@H](NC(=O)CNC(=O)c1cc(Cl)ccc1Cl)B(O)O | 8.53% |
| CC(C)(Oc1ccc(C(=O)c2ccc(Cl)cc2)cc1)C(=O)O | 103% |

Study 3
Compound: COc1ccc2c(c1)O[C@@H](c1ccc(OC)c(OC)c1)C[C@H]2NC(=O)C1(c2ccc3c(c2)OC(F)(F)O3)CC1
Observed: cell-free assay
Method: competition with immobilised ligand
Tested at: 1 µM
| target | remaining binding [%] |
| --- | --- |
| MAPK11 (Homo sapiens, UniProt Q15759) | 92 |
| DYRK2 (Homo sapiens, UniProt Q92630) | 75 |
| EGFR (Homo sapiens, UniProt P00533, G719C) | 96 |
| ULK2 (Homo sapiens, UniProt Q8IYT8) | 77 |
| MYLK2 (Homo sapiens, UniProt Q9H1R3) | 90 |
| ABL2 (Homo sapiens, UniProt P42684) | 89 |
| Tyrosine-protein kinase ABL1, phosphorylated (ABL1, Homo sapiens, UniProt P00519, E255K) | 80 |
| FLT3 (Homo sapiens, UniProt P36888) | 100 |

Other studies, line by line
| Structure (SMILES) | species | matrix | route | dose | endpoint | result |
| --- | --- | --- | --- | --- | --- | --- |
| COc1ccc(-c2c(Nc3ccccn3)[nH]c3c(C4=CCCCC4)c(-c4ccccc4)nn3c2=O)cc1 | human | plasma | oral | 200 mg twice daily | apparent steady-state clearance | 1610 mL/h and 1500 mL/h and 1620 mL/h |

Excerpt of the above (study 1):
| Structure (SMILES) | remaining activity [%] |
| --- | --- |
| Cc1nc(Nc2ncc(C(=O)Nc3c(C)cccc3Cl)s2)cc(N2CCN(CCO)CC2)n1 | 117 |
